Assay results gathered from unrelated publications.
A part holds a random share of what one study measured.
Chain of UniProt P10721 (whole entry, unmodified, looked up): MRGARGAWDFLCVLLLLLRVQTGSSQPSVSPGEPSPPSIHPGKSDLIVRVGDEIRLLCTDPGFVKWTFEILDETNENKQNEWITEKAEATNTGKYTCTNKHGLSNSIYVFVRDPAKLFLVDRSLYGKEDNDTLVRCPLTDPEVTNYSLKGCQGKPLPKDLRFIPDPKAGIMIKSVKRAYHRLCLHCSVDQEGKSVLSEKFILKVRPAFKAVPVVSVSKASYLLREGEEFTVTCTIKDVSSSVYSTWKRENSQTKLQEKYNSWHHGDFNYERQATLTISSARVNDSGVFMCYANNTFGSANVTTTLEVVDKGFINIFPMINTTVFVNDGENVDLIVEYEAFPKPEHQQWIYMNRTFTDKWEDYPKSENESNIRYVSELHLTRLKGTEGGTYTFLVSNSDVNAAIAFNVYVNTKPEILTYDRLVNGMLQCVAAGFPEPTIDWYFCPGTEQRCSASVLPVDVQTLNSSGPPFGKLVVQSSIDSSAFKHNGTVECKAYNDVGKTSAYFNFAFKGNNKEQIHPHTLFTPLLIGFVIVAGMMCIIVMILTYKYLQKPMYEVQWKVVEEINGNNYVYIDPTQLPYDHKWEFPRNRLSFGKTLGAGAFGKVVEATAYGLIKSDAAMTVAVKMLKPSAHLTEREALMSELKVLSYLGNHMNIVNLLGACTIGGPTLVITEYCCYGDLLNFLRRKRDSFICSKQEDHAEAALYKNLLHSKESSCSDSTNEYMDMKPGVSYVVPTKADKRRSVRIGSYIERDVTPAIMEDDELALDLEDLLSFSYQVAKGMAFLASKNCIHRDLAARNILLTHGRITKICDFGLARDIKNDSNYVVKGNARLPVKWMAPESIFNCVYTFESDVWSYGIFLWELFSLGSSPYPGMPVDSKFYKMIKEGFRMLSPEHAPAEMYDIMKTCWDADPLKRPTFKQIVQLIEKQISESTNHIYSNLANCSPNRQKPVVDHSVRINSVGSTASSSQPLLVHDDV
Chain of UniProt Q8TBX8 (whole entry, looked up): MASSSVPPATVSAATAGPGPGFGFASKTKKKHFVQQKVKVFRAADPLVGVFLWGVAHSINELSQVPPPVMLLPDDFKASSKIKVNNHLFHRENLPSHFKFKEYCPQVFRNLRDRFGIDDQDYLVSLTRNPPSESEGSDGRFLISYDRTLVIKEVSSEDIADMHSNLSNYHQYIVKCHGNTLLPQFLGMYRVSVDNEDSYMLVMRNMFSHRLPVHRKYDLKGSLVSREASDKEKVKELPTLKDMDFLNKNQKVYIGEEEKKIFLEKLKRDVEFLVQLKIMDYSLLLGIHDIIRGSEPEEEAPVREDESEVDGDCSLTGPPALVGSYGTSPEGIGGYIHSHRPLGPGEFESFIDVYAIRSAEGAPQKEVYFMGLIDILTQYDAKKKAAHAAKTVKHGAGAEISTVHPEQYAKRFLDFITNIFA
Chain of UniProt P42336 (whole entry, unmodified, looked up): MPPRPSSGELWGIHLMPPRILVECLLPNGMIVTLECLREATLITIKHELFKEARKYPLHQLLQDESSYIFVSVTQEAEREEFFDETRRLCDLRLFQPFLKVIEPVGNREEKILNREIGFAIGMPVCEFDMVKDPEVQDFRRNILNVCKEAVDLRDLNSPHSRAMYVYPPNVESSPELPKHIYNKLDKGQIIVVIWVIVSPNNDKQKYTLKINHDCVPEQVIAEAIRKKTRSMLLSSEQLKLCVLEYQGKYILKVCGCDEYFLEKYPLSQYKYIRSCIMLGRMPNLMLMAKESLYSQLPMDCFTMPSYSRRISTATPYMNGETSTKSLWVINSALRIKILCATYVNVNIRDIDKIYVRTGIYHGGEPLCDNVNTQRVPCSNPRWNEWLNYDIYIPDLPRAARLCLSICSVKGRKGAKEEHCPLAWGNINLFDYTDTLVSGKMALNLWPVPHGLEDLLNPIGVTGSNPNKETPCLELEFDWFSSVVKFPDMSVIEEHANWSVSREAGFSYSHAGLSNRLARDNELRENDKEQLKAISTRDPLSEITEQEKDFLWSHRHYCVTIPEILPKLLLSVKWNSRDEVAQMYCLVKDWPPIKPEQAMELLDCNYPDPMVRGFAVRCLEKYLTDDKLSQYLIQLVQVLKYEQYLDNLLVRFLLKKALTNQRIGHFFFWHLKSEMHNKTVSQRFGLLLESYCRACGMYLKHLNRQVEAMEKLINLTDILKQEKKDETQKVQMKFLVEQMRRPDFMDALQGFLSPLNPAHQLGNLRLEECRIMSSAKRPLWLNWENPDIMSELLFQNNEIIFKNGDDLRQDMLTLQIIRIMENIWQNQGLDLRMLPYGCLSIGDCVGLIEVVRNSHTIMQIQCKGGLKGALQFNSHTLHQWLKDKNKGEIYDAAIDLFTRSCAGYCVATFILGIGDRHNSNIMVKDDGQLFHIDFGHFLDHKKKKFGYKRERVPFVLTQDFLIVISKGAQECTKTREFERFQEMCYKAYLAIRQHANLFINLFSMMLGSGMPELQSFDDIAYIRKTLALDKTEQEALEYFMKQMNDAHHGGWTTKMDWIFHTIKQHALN
Chain of UniProt Q8IW41 (whole entry, looked up): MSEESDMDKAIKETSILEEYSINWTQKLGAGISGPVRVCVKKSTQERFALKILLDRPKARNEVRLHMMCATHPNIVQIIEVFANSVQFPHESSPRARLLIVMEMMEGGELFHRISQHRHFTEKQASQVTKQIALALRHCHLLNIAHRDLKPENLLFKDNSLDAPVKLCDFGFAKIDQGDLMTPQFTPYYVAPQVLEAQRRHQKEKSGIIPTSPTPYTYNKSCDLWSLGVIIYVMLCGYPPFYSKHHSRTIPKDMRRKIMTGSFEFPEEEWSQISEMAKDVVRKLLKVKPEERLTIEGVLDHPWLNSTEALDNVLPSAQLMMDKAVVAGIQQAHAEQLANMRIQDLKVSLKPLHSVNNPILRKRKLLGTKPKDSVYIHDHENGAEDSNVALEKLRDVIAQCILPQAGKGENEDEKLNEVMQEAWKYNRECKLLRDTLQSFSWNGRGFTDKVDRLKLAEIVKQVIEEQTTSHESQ
Chain of UniProt P61075 (whole entry, looked up): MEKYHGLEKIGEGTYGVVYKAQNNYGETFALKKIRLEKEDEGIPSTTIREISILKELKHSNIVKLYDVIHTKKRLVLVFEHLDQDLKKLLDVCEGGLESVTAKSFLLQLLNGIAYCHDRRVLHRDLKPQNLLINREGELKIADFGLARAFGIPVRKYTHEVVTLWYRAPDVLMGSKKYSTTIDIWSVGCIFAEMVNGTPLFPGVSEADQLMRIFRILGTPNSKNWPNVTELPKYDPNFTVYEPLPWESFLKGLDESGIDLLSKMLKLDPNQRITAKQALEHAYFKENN
Chain of UniProt Q8TDC3 (whole entry, looked up): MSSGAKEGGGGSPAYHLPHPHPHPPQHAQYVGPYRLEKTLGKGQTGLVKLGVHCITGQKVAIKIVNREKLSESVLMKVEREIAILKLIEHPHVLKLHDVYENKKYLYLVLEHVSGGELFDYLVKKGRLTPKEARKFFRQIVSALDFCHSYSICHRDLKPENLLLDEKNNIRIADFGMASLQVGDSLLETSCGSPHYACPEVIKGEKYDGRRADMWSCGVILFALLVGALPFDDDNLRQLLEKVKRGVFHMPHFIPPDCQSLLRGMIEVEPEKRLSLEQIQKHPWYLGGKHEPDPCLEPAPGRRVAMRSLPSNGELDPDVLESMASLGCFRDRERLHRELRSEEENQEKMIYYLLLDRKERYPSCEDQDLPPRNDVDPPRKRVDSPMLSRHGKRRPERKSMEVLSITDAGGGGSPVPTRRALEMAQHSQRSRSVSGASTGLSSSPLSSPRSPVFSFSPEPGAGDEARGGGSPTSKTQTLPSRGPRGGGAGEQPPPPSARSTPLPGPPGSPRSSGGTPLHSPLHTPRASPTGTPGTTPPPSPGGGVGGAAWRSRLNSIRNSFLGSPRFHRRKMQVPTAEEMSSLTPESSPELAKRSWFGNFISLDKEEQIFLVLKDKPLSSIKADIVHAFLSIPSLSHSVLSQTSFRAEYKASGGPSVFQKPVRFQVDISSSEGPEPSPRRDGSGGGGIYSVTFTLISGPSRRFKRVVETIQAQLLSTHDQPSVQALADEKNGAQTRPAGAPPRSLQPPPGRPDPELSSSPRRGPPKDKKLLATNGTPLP
Chain of UniProt Q9NY57 (whole entry, looked up): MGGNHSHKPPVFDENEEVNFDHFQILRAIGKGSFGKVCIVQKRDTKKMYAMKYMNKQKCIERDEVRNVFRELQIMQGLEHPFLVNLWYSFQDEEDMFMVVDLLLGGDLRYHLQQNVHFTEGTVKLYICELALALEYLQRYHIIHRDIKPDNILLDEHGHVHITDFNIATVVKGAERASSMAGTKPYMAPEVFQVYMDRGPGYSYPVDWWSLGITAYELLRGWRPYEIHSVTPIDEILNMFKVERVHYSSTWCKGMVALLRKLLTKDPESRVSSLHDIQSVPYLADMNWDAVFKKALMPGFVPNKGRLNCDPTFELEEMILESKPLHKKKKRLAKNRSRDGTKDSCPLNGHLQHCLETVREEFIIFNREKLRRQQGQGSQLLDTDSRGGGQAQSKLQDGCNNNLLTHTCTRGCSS

Study 1 — read-out: enzyme activity; mode: inhibitor; tested at: 0.5 µM; reference: control
Target: Protein-tyrosine kinase 6 (PTK6, Homo sapiens, UniProt Q13882)
Chain of UniProt Q13882 (whole entry, looked up): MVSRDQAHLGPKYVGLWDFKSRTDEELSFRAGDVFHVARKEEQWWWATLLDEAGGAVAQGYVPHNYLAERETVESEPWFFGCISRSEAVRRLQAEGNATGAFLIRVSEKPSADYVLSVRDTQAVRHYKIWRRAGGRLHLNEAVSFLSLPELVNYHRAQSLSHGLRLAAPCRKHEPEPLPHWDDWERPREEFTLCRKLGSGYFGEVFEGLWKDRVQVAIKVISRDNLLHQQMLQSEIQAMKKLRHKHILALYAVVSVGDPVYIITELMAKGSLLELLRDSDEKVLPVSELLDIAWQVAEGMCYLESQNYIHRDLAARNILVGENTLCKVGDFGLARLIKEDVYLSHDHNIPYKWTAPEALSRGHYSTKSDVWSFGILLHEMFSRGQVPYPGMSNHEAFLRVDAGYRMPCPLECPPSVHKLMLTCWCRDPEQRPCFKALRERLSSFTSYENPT
C[C@@H](N)[C@H]1CC[C@H](C(=O)Nc2ccncc2)CC1 has a remaining activity of 86.3%.
CNc1cc2c(Nc3cccc(Br)c3)ncnc2cn1 has a remaining activity of 54.4%.
With CC(C)n1cnc2c(Nc3cccc(Cl)c3)nc(NCCO)nc21 the remaining activity was 90.2%.
With N#C/C(=C(/N)SC1C=CC=CC1)c1cccc(C(O)c2ccncc2)c1 (centres unmarked) the remaining activity was 103%.
With CCCCc1c(-c2ccc(O)cc2)[nH]c2nccnc12 the remaining activity was 29.7%.
The remaining activity of CC(C)(C)c1nc2c3cc[nH]c(=O)c3c3cc(F)ccc3c2[nH]1 is reported as 88%.
O=C1NC(=O)/C(=C/c2ccc3c(c2)OC(F)(F)O3)S1 has a remaining activity of 94.8%.
With O=C(O)/C=C/c1cc(Br)c(Br)c(Br)c1Br the remaining activity was 95%.
The remaining activity of NC(=O)c1ccc(-c2nc(-c3ccc4c(c3)OCCO4)c(-c3ccccn3)[nH]2)cc1 is reported as 91.3%.
COc1cc2c(Nc3ccc(Br)cc3F)ncnc2cc1OCC1CCN(C)CC1 gave a remaining activity of 7.28%.
O=C(c1ccccc1)c1ccc(N2CCOCC2)cc1O gave a remaining activity of 98.2%.
With O=Nc1c(-c2c(O)[nH]c3ccccc23)[nH]c2ccccc12 the remaining activity was 97.2%.
CC(C)N(CCC(=O)c1ccc2ccccc2c1)Cc1ccccc1 has a remaining activity of 96.4%.
The remaining activity of N#CC(c1ccnc(NCCc2cccnc2)n1)c1nc2ccccc2s1 (centres unmarked) is reported as 46.5%.
The remaining activity of O=C1c2ccccc2-c2nc3nnnn3nc21 is reported as 111%.
O=c1c(-c2ccc(F)cc2)c(-c2ccncc2)[nH]n1-c1ccc(Cl)cc1 has a remaining activity of 57.5%.
With Nc1nc(Nc2ccc(S(N)(=O)=O)cc2)nn1C(=S)Nc1c(F)cccc1F the remaining activity was 34.8%.
CCN(CC)CCCCN1c2ccccc2Oc2ccc(Cl)cc21 gave a remaining activity of 95%.
NC(=O)c1cccc(-c2cc(Nc3ccc(OC(F)(F)F)cc3)ncn2)c1 gave a remaining activity of 94.5%.
FC(F)(F)c1ccc(/C=C/c2nc(COc3ccc(CCCCn4ccnn4)cc3)co2)cc1 has a remaining activity of 97.8%.
c1cc(-c2cnn3cc(-c4ccc(OCCN5CCCCC5)cc4)cnc23)ccn1 gave a remaining activity of 37.2%.
For COc1cc2c(N3CCN(C(=O)Nc4ccc(OC(C)C)cc4)CC3)ncnc2cc1OCCCN1CCCCC1, the remaining activity was 92.9%.

Study 2 — host: mouse; sample: microsomes or S9; tested at: 2 µM; time: 0.5 h
The remaining compound of COc1cc(OC)cc(N(Cc2c(F)cccc2Cl)C(=O)Cc2ccncc2)c1 is reported as 1.03%.
The remaining compound of CCN(CC)S(=O)(=O)c1ccc(S(=O)(=O)NCc2cccs2)cc1 is reported as 7.74%.
The remaining compound of CC1CC(=O)N(c2cccc(Cl)c2)N=C1c1ccc(O)cc1 (centres unmarked) is reported as 6.73%.
COc1c(-c2ccccc2)oc2ccccc2c1=O gave a remaining compound of 0.152%.
COCCCNC(=O)NCCc1c(C)nn(C)c1C has a remaining compound of 59%.
CC1(C)C=C(N(Cc2ncc[nH]2)c2ccc(Cl)c(Cl)c2)c2ccnc(Br)c2O1 has a remaining compound of 2.78%.
For CCOC(=O)c1cc(C(=O)OCC)n(CCCC#N)c1, the remaining compound was 2.01%.
The remaining compound of Cn1cc(-c2cnc3c(N)nn(Cc4cccc(C(F)(F)F)c4)c3c2)cn1 is reported as 59.1%.
The remaining compound of O=C(c1ccoc1)N1CC(c2nnc(-c3ccncc3)o2)C2(CCOCC2)C1 (centres unmarked) is reported as 54.2%.
CCOC(=O)Nc1ccc(Br)c2ccc(OCc3ccccc3)c(CCCO)c12 gave a remaining compound of 76.6%.
CCN1CCN(CCCNC(=O)c2oc3ccc4c(c3c2C)C(O)CC(C)(C)O4)CC1 (centres unmarked) gave a remaining compound of 96%.
C=CCC(C)(NCc1ccccc1)c1ccccc1 (centres unmarked) gave a remaining compound of 0.474%.
With COc1ccc(-c2cc3cc(C)cc(C)c3o2)cc1OC the remaining compound was 80.4%.
With COc1ccc(CCc2nc(C)c(O)c(-c3nnn[nH]3)c2C(=O)O)cc1 the remaining compound was 4.6%.
Fc1ccc(CNc2c(-c3ccccn3)nc3cnccn23)cc1 has a remaining compound of 0.0512%.
The remaining compound of c1ccc2c(c1)Cc1cc(-n3nnc4ccccc43)ccc1-2 is reported as 3.72%.
For CCNC(=O)N1c2ccc(CC)cc2C(C)=CC1(C)C, the remaining compound was 0.137%.

Study 3 — mode: inhibitor; tested at: 1 µM
SMILES: C=CC(=O)N1CCC[C@@H](n2nc(-c3ccc(Oc4ccccc4)cc3)c3c(N)ncnc32)C1
For Activin receptor type-1 (ACVR1, Homo sapiens, UniProt Q04771); enzyme activity: inhibition read 2%.
For Cyclin-dependent kinase 2 homolog (CRK2, Plasmodium falciparum, UniProt P61075); enzyme activity: inhibition read 10%.
Serine/threonine-protein kinase TBK1 (TBK1, Homo sapiens, UniProt Q9UHD2); enzyme activity — inhibition: 9%.
The inhibition was 21% (Serine/threonine-protein kinase 32B (STK32B, Homo sapiens, UniProt Q9NY57)).
Phosphatidylinositol 5-phosphate 4-kinase type-2 gamma (PIP4K2C, Homo sapiens, UniProt Q8TBX8) — inhibition: 0%.
For Phosphatidylinositol 4,5-bisphosphate 3-kinase catalytic subunit alpha isoform (PIK3CA, Homo sapiens, UniProt P42336, M1043I); enzyme activity: inhibition read 18%.
The inhibition was 100% (Tyrosine-protein kinase Blk (BLK, Homo sapiens, UniProt P51451); enzyme activity).
It gave 32% for inhibition (Megakaryocyte-associated tyrosine-protein kinase (MATK, Homo sapiens, UniProt P42679)).
For Mast/stem cell growth factor receptor Kit (KIT, Homo sapiens, UniProt P10721, V559D/V654A): inhibition read 9%.
For Tyrosine-protein kinase Fyn (FYN, Homo sapiens, UniProt P06241); enzyme activity: inhibition read 95%.

Study 4 — tested at: 1 µM
Compound: CCCOc1ccc([C@@H]2[C@@H](C(=O)O)[C@H](c3ccc4c(c3)OCO4)CN2CC(=O)Nc2c(CC)cccc2CC)cc1
For Mast/stem cell growth factor receptor Kit (KIT, Homo sapiens, UniProt P10721, A829P); cell-free assay, competition with immobilised ligand: remaining binding read 66%.
The remaining binding was 100% (Interferon-induced, double-stranded RNA-activated protein kinase (EIF2AK2, Homo sapiens, UniProt P19525); cell-free assay, competition with immobilised ligand).
It gave 75% for remaining binding (Mitogen-activated protein kinase kinase kinase 13 (MAP3K13, Homo sapiens, UniProt O43283); cell-free assay, competition with immobilised ligand).
The remaining binding was 100% (Serine/threonine-protein kinase BRSK1 (BRSK1, Homo sapiens, UniProt Q8TDC3); cell-free assay, competition with immobilised ligand).
The remaining binding was 86% (Serine/threonine-protein kinase D3 (PRKD3, Homo sapiens, UniProt O94806); cell-free assay, competition with immobilised ligand).
It gave 100% for remaining binding (Serine/threonine-protein kinase mTOR (MTOR, Homo sapiens, UniProt P42345); cell-free assay, competition with immobilised ligand).
ALK tyrosine kinase receptor (ALK, Homo sapiens, UniProt Q9UM73); cell-free assay, competition with immobilised ligand — remaining binding: 100%.
For Receptor-type tyrosine-protein kinase FLT3 (FLT3, Homo sapiens, UniProt P36888, D835Y); cell-free assay, competition with immobilised ligand: remaining binding read 100%.
It gave 91% for remaining binding (Serine/threonine-protein kinase PAK 4 (PAK4, Homo sapiens, UniProt O96013); cell-free assay, competition with immobilised ligand).
Serine/threonine-protein kinase PAK 2 (PAK2, Homo sapiens, UniProt Q13177); cell-free assay, competition with immobilised ligand — remaining binding: 100%.
Cyclin-dependent kinase 19 (CDK19, Homo sapiens, UniProt Q9BWU1); competition binding — remaining binding: 89%.
MAP kinase-activated protein kinase 5 (MAPKAPK5, Homo sapiens, UniProt Q8IW41); cell-free assay, competition with immobilised ligand — remaining binding: 87%.
The remaining binding was 97% (Proto-oncogene tyrosine-protein kinase receptor Ret (RET, Homo sapiens, UniProt P07949, M918T); cell-free assay, competition with immobilised ligand).
It gave 100% for remaining binding (Ephrin type-A receptor 5 (EPHA5, Homo sapiens, UniProt P54756); cell-free assay, competition with immobilised ligand).
For Bone morphogenetic protein receptor type-1B (BMPR1B, Homo sapiens, UniProt O00238); cell-free assay, competition with immobilised ligand: remaining binding read 82%.
Ribosomal protein S6 kinase alpha-5, C-terminal kinase domain (RPS6KA5, Homo sapiens, UniProt O75582); cell-free assay, competition with immobilised ligand — remaining binding: 97%.
Myotonin-protein kinase (DMPK, Homo sapiens, UniProt Q09013); cell-free assay, competition with immobilised ligand — remaining binding: 86%.
It gave 100% for remaining binding (Serine/threonine-protein kinase SIK1 (SIK1, Homo sapiens, UniProt P57059); competition binding).
Dual specificity mitogen-activated protein kinase kinase 7 (MAP2K7, Homo sapiens, UniProt O14733); cell-free assay, competition with immobilised ligand — remaining binding: 91%.
Ephrin type-A receptor 6 (EPHA6, Homo sapiens, UniProt Q9UF33); cell-free assay, competition with immobilised ligand — remaining binding: 98%.
It gave 87% for remaining binding (Cyclin-dependent kinase 2 (CDK2, Homo sapiens, UniProt P24941); cell-free assay, competition with immobilised ligand).
The remaining binding was 72% (Tyrosine-protein kinase BTK (BTK, Homo sapiens, UniProt Q06187); cell-free assay, competition with immobilised ligand).

Excerpt of the above (study 2):
COCCCNC(=O)NCCc1c(C)nn(C)c1C has a remaining compound of 59%.
CC1(C)C=C(N(Cc2ncc[nH]2)c2ccc(Cl)c(Cl)c2)c2ccnc(Br)c2O1 has a remaining compound of 2.78%.
For CCOC(=O)c1cc(C(=O)OCC)n(CCCC#N)c1, the remaining compound was 2.01%.
The remaining compound of Cn1cc(-c2cnc3c(N)nn(Cc4cccc(C(F)(F)F)c4)c3c2)cn1 is reported as 59.1%.
The remaining compound of O=C(c1ccoc1)N1CC(c2nnc(-c3ccncc3)o2)C2(CCOCC2)C1 (centres unmarked) is reported as 54.2%.
CCOC(=O)Nc1ccc(Br)c2ccc(OCc3ccccc3)c(CCCO)c12 gave a remaining compound of 76.6%.
CCN1CCN(CCCNC(=O)c2oc3ccc4c(c3c2C)C(O)CC(C)(C)O4)CC1 (centres unmarked) gave a remaining compound of 96%.
C=CCC(C)(NCc1ccccc1)c1ccccc1 (centres unmarked) gave a remaining compound of 0.474%.
With COc1ccc(-c2cc3cc(C)cc(C)c3o2)cc1OC the remaining compound was 80.4%.
With COc1ccc(CCc2nc(C)c(O)c(-c3nnn[nH]3)c2C(=O)O)cc1 the remaining compound was 4.6%.
